{"data": "Literature values that unrelated publications cite", "note": "Numbers after ± are the reported error."}
{"Structure (SMILES)": "CCC1=C(O)c2c(oc(-c3ccc(OC)c4ccccc34)cc2=O)C(CC)(CC)C1=O", "cell line": "SK-BR-3", "observed": "cell growth", "technique": "SRB", "IC50": "2.27 µM"}
{"Structure (SMILES)": "[Cl-].[Cl-].[Ru+2].c1ccc(-c2ccccn2)nc1.c1ccc(-c2ccccn2)nc1.c1cnc2c(c1)ccc1cccnc12", "cell line": "HT-29", "setting": "dark", "IC50": "> 100 µM"}
{"Structure (SMILES)": "COc1ccc(/C=C/C(=N)/C=C2/C(=O)Nc3cc(Br)ccc32)cc1", "cell line": "H1650", "observed": "cell growth", "IC50": "> 100 µM"}
{"Structure (SMILES)": "O=C1OCC2=C1C(c1cccc([N+](=O)[O-])c1)C1=C(N2)C(=O)c2ccccc2C1=O (centres unmarked)", "cell line": "HEK293 cells", "observed": "cell growth", "IC50": "1.47 ± 0.04 µM"}
{"Structure (SMILES)": "C/C(=N\\NC(=O)c1ccc([N+](=O)[O-])cc1)c1ccc(NC(=O)c2cccnc2)cc1", "cell line": "HCT-116", "IC50": "4.05 µM"}
{"Structure (SMILES)": "COc1ccccc1NC(=O)N[C@H](C(=O)Nc1ccc(C(=O)NO)cc1)c1ccccc1", "cell line": "U-266", "observed": "cell viability", "technique": "MTT", "IC50": "5.3 µM"}
{"Structure (SMILES)": "Cc1ccc(Cn2cc(CN3C(=O)C4(C(C#N)=C(N)Nc5c4ccc4[nH]c6ccccc6c54)c4cc(F)ccc43)nn2)cc1 (centres unmarked)", "cell line": "HeLa", "observed": "cell growth", "IC50": "3.35 µM"}
{"Structure (SMILES)": "CC1=C2[O][Ru-]([Cl])[O+]=C2C=CN1CCCCCCN1C=CC2=[O+][Ru-]([Cl])[O]C2=C1C.Cc1ccc(C(C)C)cc1.Cc1ccc(C(C)C)cc1", "cell line": "SW480", "technique": "MTT", "IC50": "26 ± 8 µM"}
{"Structure (SMILES)": "Oc1cccc(-c2cccc(O)n2)n1.[Cl-].[Cl-].[Ru+2].c1cnc2c(c1)c1c(c3cccnc32)OCCO1.c1cnc2c(c1)c1c(c3cccnc32)OCCO1", "cell line": "MCF-10A", "observed": "cell viability", "added": "blue light 450 nm, 1 h", "IC50": "29 µM"}
{"Structure (SMILES)": "N=C(NO)NN=Cc1nccc2c([N+](=O)[O-])cccc12", "cell line": "CCRF-CEM", "observed": "cell growth", "IC50": "3 µM"}
{"Structure (SMILES)": "CCCCCCCCCCCCCCCCCC1=C(C(=O)OC)C(c2cccc(O)c2)NC(=S)N1 (centres unmarked)", "cell line": "glioma cell lines", "observed": "cell growth", "IC50": "6.85 µM"}
{"Structure (SMILES)": "CC(=O)OCC12C(=O)C=CC(OC(C)=O)C13OC3CC1C3CCC(C(C)C4CC(C)=C(C)C(=O)O4)C3(C)CCC12 (centres unmarked)", "cell line": "Hs-578T", "observed": "cell growth", "IC50": "0.26 µM"}
{"Structure (SMILES)": "COc1cc(/C=N/N2C(=O)c3ccccc3NC2c2cc(OC)c(O)c([N+](=O)[O-])c2)cc([N+](=O)[O-])c1O (centres unmarked)", "cell line": "human renal tubule TH-1", "observed": "cytotoxicity", "IC50": "> 1000 µM"}
{"Structure (SMILES)": "CC(C)(C)C1=CC(=NNC(=O)c2ccncc2)C=C(C(C)(C)C)C1=O", "cell line": "U2OS", "observed": "cell viability", "IC50": "> 100 µM"}
{"Structure (SMILES)": "CCC1=C(O)c2c(oc(-c3ccc4ccccc4c3)cc2=O)C(CC)(CC)C1=O", "cell line": "KB", "observed": "cell growth", "technique": "SRB", "IC50": "1.03 µM"}
{"Structure (SMILES)": "CC1=C(CO)C(=O)O[C@@H]([C@@H](C)[C@H]2CC[C@H]3[C@@H]4C[C@H]5O[C@]56[C@@H](O)C=CC(=O)[C@]6(C)[C@H]4CC[C@]23C)C1", "cell line": "Hep G2", "observed": "cell growth", "IC50": "0.13 µM"}
{"Structure (SMILES)": "O=C(/C=C/c1ccc(O)c(O)c1)NCCc1ccc(O)c(O)c1", "cell line": "RAW264.7", "observed": "nitric oxide production", "time": "24 h", "added": "LPS 100 ng/mL", "IC50": "39.1 ± 3.53 µM"}
{"Structure (SMILES)": "CC1=C(COC2OC(CO)C(O)C(O)C2O)C(=O)OC(C(C)C2CCC3C4CC5OC56C(O)C=CC(=O)C6(C)C4CCC23C)C1 (centres unmarked)", "cell line": "Hs-578T", "observed": "cell growth", "IC50": "8.79 µM"}
{"Structure (SMILES)": "O=C1OCC2=C1C(c1ccccc1[N+](=O)[O-])C1=C(N2)C(=O)c2ccccc2C1=O (centres unmarked)", "cell line": "HEK293 cells", "observed": "cell growth", "IC50": "4.78 ± 0.14 µM"}
{"Structure (SMILES)": "CC[C@H](C)[C@@H]1NC(=O)[C@H](Cc2c[nH]c3ccccc23)NC(=O)[C@H](C)NC(=O)[C@H](C(C)C)NC(=O)[C@H](CC(C)C)NC(=O)[C@H](Cc2c[nH]c3ccccc23)NC1=O", "cell line": "MM1.S", "IC50": "8 µM"}
{"note": "Repeated from above:"}
{"Structure (SMILES)": "Oc1cccc(-c2cccc(O)n2)n1.[Cl-].[Cl-].[Ru+2].c1cnc2c(c1)c1c(c3cccnc32)OCCO1.c1cnc2c(c1)c1c(c3cccnc32)OCCO1", "cell line": "MCF-10A", "observed": "cell viability", "added": "blue light 450 nm, 1 h", "IC50": "29 µM"}
